{"data": "Measured values collected from several papers", "note": "Lines come from different studies, so protocols differ. “And” joins repeats or separate records; there may be more than shown. ± gives the spread as reported."}
{"SMILES": "CN(C)CCOC(C)(c1ccccc1)c1ccccn1 (stereo not shown)", "target": "H+/organic cation antiporter", "assay": "cell uptake", "test system": "hCMEC/D3", "measurement": "Km", "value": "30 µM"}
{"SMILES": "CCS(=O)(=O)c1nc(C2CC2)cc(C(F)(F)F)n1", "target": "importin alpha/beta-1", "assay": "cMyc nuclear import, high content imaging", "test system": "HeLa Kyoto reporter", "conditions": "0.5 µM, 2 h", "measurement": "cells with nuclear reporter", "value": "91.5% and 93.8% and 65.8% and 96.9%"}
{"SMILES": "O=C1CC2(CCCC2)CC(=O)N1CCCCN1CCN(c2ncccn2)CC1", "target": "H+/organic cation antiporter", "assay": "cell uptake", "test system": "hCMEC/D3", "measurement": "Vmax", "value": "174 pmol/min/mg protein"}
{"SMILES": "NC(=O)C1=CN([C@@H]2O[C@H](COP(=O)(O)OP(=O)(O)OC[C@H]3O[C@@H](n4cnc5c(N)ncnc54)[C@H](O)[C@@H]3O)[C@@H](O)[C@H]2O)C=CC1", "target": "FSP1 F354A mutant", "assay": "substrate", "conditions": "added: 100 µM co-substrate", "measurement": "kcat", "value": "7.06 ± 1.25 s⁻¹"}
{"SMILES": "C=CC(=O)N1CCC(C(=O)N(C)CC(=O)N2CCN(c3nc(-c4cnc(N)nc4C(F)F)nc(N4CCOCC4)n3)CC2)CC1", "target": "PKB/Akt", "assay": "Ser473 phosphorylation, in-cell western", "test system": "SK-OV-3", "measurement": "IC50", "value": "85.1 nM"}
{"SMILES": "COc1cc2cc(CNCCC3CCN(C4CCCC4)CC3)c(SCc3ccccc3)nc2c(OC)c1OC", "target": "electron transport chain", "assay": "proton pumping, ACMA quenching", "test system": "Pseudomonas aeruginosa inverted membrane vesicles", "conditions": "32 µg/mL, added: NADH", "measurement": "inhibition", "value": "82%"}
{"SMILES": "CC(C)n1cc(C(C)(C)C)nc1CN1CCN(Cc2nc(C(C)(C)C)cn2C(C)C)CCN(Cc2nc(C(C)(C)C)cn2C(C)C)CC1", "target": "Zn2+", "assay": "potentiometric titration", "how to read": "baseline: Zn2+ over Mn2+", "measurement": "stability constant difference", "value": "3.3 orders of magnitude"}
{"SMILES": "CCCN1C[C@H](CSC)C[C@@H]2c3cccc4[nH]cc(c34)C[C@H]21", "target": "human seizure ion channel panel", "assay": "ion current, automated patch clamp", "measurement": "lowest IC30 across channels", "value": "4390 nM"}
{"SMILES": "c1coc(-c2n[nH]cc2-c2ccnc3ccccc23)c1", "target": "RIO2 (Candida albicans)", "assay": "kinase binding, MIB/MS competition", "test system": "Candida albicans lysate", "conditions": "10 µM", "how to read": "baseline: DMSO", "measurement": "log2 fold change", "value": -0.15}
{"SMILES": "O=C(Nc1ccc(Cl)cc1)Nc1ccc(Cl)c(Cl)c1", "target": "camel nanobody T2", "assay": "binding, competitive ELISA", "conditions": "concentration not given", "measurement": "cross-reactivity", "value": "< 0.1%"}
{"SMILES": "CCN1CCC(CCNCc2cc3cc(-c4ccccc4)ccc3nc2SCc2ccccc2)CC1", "target": "electron transport chain", "assay": "proton pumping, ACMA quenching", "test system": "Pseudomonas aeruginosa inverted membrane vesicles", "conditions": "32 µg/mL, added: NADH", "measurement": "inhibition", "value": "83%"}
{"SMILES": "CCN(C)C(=O)Oc1cccc([C@H](C)N(C)C)c1", "target": "H+/organic cation antiporter", "assay": "cell uptake", "test system": "hCMEC/D3", "measurement": "Vmax", "value": "943 pmol/min/mg protein"}
{"SMILES": "C=C1CC(C(=O)Nc2cc(C(=O)NC)cc(-c3sccc3CCCCCCCC)c2OC)C1", "target": "TREM2 (human)", "assay": "reporter gene, agonist, NFAT luciferase reporter", "test system": "Jurkat-NFAT cells overexpressing TREM2", "conditions": "25 µM, 4 h", "how to read": "baseline: control", "measurement": "luciferase activity", "value": "~215%"}
{"SMILES": "CCCN1CCCC[C@H]1C(=O)Nc1c(C)cccc1C", "target": "H+/organic cation antiporter", "assay": "cell uptake", "test system": "hCMEC/D3", "measurement": "Vmax", "value": "224 pmol/min/mg protein"}
{"SMILES": "CCCCCCCC(=O)OC[C@H](COP(=O)(O)O[C@@H]1[C@H](O)[C@H](O)[C@@H](OP(=O)(O)O)[C@H](OP(=O)(O)O)[C@H]1O)OC(=O)CCCCCCC", "target": "Kv7.2/Kv7.3(EEE) mutant channel", "assay": "channel open probability, activator, fitted PIP2 binding model", "conditions": "model 4, K3 constrained", "how to read": "baseline: channel without bound PIP2", "measurement": "efficacy factor E3", "value": 0.28}
{"SMILES": "Fc1ccc([C@@H]2CCNC[C@H]2COc2ccc3c(c2)OCO3)cc1", "target": "human seizure ion channel panel", "assay": "ion current, automated patch clamp", "measurement": "lowest IC30 across channels", "value": "1270 nM"}
{"SMILES": "O=C(CCCN1CCC(O)(c2ccc(Cl)cc2)CC1)c1ccc(F)cc1", "target": "H+/organic cation antiporter", "assay": "cell uptake", "test system": "hCMEC/D3", "measurement": "Km", "value": "76.8 µM"}
{"SMILES": "O=C(O)Cc1ccccc1Nc1c(Cl)cccc1Cl", "target": "human seizure ion channel panel", "assay": "ion current, automated patch clamp", "measurement": "lowest IC30 across channels", "value": "> 30000 nM"}
{"SMILES": "c1ccc(CSc2nc3ccc(-c4ccccc4)cc3cc2CNCCC2CCN(C3CCCC3)CC2)cc1", "target": "electron transport chain", "assay": "proton pumping, ACMA quenching", "test system": "Pseudomonas aeruginosa inverted membrane vesicles", "conditions": "32 µg/mL, added: NADH", "measurement": "inhibition", "value": "82%"}
{"SMILES": "COc1nc(NCc2cn(-c3ccc(C(=O)Nc4ccc(C(F)(F)F)cc4)cc3)nn2)nc(OC)n1", "target": "calf thymus DNA", "assay": "DNA damage, Tb3+ fluorescence", "conditions": "24 h", "measurement": "limit of quantification", "value": "6.24 nM"}
{"SMILES": "CC[S+]([O-])c1nc(-c2ccccc2)cc(C(F)(F)F)n1 (stereo not shown)", "target": "importin alpha/beta-1", "assay": "cMyc nuclear import, high content imaging", "test system": "HeLa Kyoto reporter", "conditions": "15.8 µM, 2 h", "measurement": "cells with nuclear reporter", "value": "4.45% and 0.97% and 1.85% and 0.86%"}
{"SMILES": "CN(C)CCOC(c1ccccc1)c1ccccc1.Cn1c(=O)c2[nH]c(Cl)nc2n(C)c1=O", "target": "H+/organic cation antiporter", "assay": "cell uptake", "test system": "hCMEC/D3", "measurement": "Vmax", "value": "2040 pmol/min/mg protein"}
{"SMILES": "Oc1ccccc1-c1n[nH]cc1-c1ccnc2ccccc12", "target": "PTK2 (Candida albicans)", "assay": "kinase binding, MIB/MS competition", "test system": "Candida albicans lysate", "conditions": "10 µM", "how to read": "baseline: DMSO", "measurement": "log2 fold change", "value": -0.21}
{"SMILES": "C[C@@H]1CC[C@H]2[C@@H](/C1=C/C[C@H]1[C@]3(C)CCC(=O)C(C)(C)O[C@H]3CC[C@]1(C)O)C(C)(C)CC[C@]2(C)O", "target": "P-glycoprotein human", "assay": "inhibitor, efflux", "test system": "KB-C2", "conditions": "10 µM, 30 min, added: [3H]-paclitaxel", "measurement": "paclitaxel remaining", "value": "82.3%"}
{"SMILES": "O=C(NN=Cc1ccc(C[n+]2ccccc2)cc1)c1ccc2ccc3ccc(C(=O)NN=Cc4ccc(C[n+]5ccccc5)cc4)nc3c2n1.[Br-].[Br-]", "target": "telomeric G4 DNA hybrid-2", "assay": "FRET melting", "conditions": "1 µM, DNA 0.2 µM, added: duplex DNA competitor 10 µM", "measurement": "ΔTm", "value": "36 °C"}
{"SMILES": "Nc1ncnc2c1ncn2[C@@H]1O[C@H](COP(=O)(O)OP(=O)(O)OP(=O)(O)O)[C@@H](O)[C@H]1O", "target": "P2Y receptor", "assay": "calcium response, fura-2 imaging", "test system": "16HBE14o- cells", "conditions": "2.5 µM", "measurement": "responding cells", "value": "62.3 ± 11.5%"}
{"SMILES": "CC(C)c1cn(C(C)C)c(CN2CCN(Cc3nc(C(C)C)cn3C(C)C)CCN(Cc3nc(C(C)C)cn3C(C)C)CC2)n1", "target": "Zn2+", "assay": "potentiometric titration", "how to read": "baseline: Zn2+ over Mn2+", "measurement": "stability constant difference", "value": "≥ 9 orders of magnitude"}
{"SMILES": "c1ccc(CSc2nc3ccc(-c4ccccc4)cc3cc2CNCc2ccc(CN3CCCC3)cc2)cc1", "target": "electron transport chain", "assay": "proton pumping, ACMA quenching", "test system": "Pseudomonas aeruginosa inverted membrane vesicles", "conditions": "32 µg/mL, added: NADH", "measurement": "inhibition", "value": "97%"}
{"SMILES": "COc1ccc2c(c1)c(CC(=O)O)c(C)n2C(=O)c1ccc(Cl)cc1", "target": "human seizure ion channel panel", "assay": "ion current, automated patch clamp", "measurement": "lowest IC30 across channels", "value": "> 30000 nM"}
{"SMILES": "CCCCN1CCCCC1C(=O)Nc1c(C)cccc1C (stereo not shown)", "target": "H+/organic cation antiporter", "assay": "cell uptake", "test system": "hCMEC/D3", "measurement": "Km", "value": "92.8 µM"}
{"SMILES": "Brc1ccc2nc(SCc3ccccc3)c(CNCc3ccc(CN4CCCC4)cc3)cc2c1", "target": "electron transport chain", "assay": "proton pumping, ACMA quenching", "test system": "Pseudomonas aeruginosa inverted membrane vesicles", "conditions": "2 µg/mL, added: NADH", "measurement": "inhibition", "value": "30%"}
{"SMILES": "COc1nc(NCc2cn(-c3ccc(C(=O)Nc4ccccc4)cc3)nn2)nc(OC)n1", "target": "calf thymus DNA", "assay": "Tb3+ fluorescence", "how to read": "no further fluorescence increase above", "measurement": "concentration of maximal DNA damage", "value": "6 µM"}
{"SMILES": "CC(C)C(=O)Oc1ccc(CO)cc1[C@H](CCN(C(C)C)C(C)C)c1ccccc1", "target": "H+/organic cation antiporter", "assay": "cell uptake", "test system": "hCMEC/D3", "measurement": "Km", "value": "47.8 µM"}
{"SMILES": "CC(Nc1nc(N2CCCC2)nc2ccccc12)c1ccccc1 (stereo not shown)", "target": "importin α/β1", "assay": "cMyc nuclear import, high content imaging", "test system": "HeLa Kyoto reporter", "conditions": "5 µM, 2 h", "measurement": "cells with nuclear reporter", "value": "89.3%"}
{"note": "Repeated from above:"}
{"SMILES": "Nc1ncnc2c1ncn2[C@@H]1O[C@H](COP(=O)(O)OP(=O)(O)OP(=O)(O)O)[C@@H](O)[C@H]1O", "target": "P2Y receptor", "assay": "calcium response, fura-2 imaging", "test system": "16HBE14o- cells", "conditions": "2.5 µM", "measurement": "responding cells", "value": "62.3 ± 11.5%"}
{"SMILES": "CC(C)c1cn(C(C)C)c(CN2CCN(Cc3nc(C(C)C)cn3C(C)C)CCN(Cc3nc(C(C)C)cn3C(C)C)CC2)n1", "target": "Zn2+", "assay": "potentiometric titration", "how to read": "baseline: Zn2+ over Mn2+", "measurement": "stability constant difference", "value": "≥ 9 orders of magnitude"}
{"SMILES": "c1ccc(CSc2nc3ccc(-c4ccccc4)cc3cc2CNCc2ccc(CN3CCCC3)cc2)cc1", "target": "electron transport chain", "assay": "proton pumping, ACMA quenching", "test system": "Pseudomonas aeruginosa inverted membrane vesicles", "conditions": "32 µg/mL, added: NADH", "measurement": "inhibition", "value": "97%"}
